# Measurements from different studies.
# Every numbered part comes from another study and shows a few of its results, in no order. Several values in a cell are separate wells, animals, samples, runs or records.
# Sequence of UniProt P21918 (whole entry, looked up): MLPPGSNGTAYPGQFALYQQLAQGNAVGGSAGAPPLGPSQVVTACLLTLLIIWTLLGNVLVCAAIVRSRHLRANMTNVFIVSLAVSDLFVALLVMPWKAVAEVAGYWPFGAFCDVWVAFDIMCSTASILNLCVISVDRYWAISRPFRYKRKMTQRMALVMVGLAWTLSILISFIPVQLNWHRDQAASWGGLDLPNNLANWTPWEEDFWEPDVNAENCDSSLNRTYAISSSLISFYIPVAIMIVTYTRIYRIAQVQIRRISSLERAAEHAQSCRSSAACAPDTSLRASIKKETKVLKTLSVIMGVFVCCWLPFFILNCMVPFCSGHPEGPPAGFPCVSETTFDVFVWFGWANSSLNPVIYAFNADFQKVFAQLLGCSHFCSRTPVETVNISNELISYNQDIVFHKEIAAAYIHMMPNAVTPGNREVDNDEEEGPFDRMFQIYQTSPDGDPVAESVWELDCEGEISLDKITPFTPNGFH
# Sequence of UniProt Q59H18 (whole entry, looked up): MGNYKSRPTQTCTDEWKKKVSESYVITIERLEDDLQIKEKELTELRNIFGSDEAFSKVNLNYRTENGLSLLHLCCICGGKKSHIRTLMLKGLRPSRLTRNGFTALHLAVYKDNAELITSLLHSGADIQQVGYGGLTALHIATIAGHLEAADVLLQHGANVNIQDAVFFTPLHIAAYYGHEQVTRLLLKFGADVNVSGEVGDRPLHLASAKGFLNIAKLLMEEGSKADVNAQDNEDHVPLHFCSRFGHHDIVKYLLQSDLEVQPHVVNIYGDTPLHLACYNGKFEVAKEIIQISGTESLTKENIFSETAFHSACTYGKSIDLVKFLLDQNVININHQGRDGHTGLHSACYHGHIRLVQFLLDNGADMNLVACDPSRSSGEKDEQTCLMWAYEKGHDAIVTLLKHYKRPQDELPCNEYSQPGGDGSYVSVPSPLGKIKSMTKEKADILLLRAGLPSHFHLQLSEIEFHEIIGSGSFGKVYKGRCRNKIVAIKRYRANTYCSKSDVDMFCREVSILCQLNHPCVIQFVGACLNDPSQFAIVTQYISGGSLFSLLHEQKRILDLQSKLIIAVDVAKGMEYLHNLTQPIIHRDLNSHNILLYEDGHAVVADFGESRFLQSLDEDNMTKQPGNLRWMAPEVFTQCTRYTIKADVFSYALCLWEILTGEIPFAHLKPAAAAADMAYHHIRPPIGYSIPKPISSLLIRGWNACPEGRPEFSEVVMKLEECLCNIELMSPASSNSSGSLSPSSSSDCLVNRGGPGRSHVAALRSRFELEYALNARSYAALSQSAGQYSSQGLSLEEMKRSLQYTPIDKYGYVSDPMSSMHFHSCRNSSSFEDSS
# Sequence of UniProt P62344 (whole entry, looked up): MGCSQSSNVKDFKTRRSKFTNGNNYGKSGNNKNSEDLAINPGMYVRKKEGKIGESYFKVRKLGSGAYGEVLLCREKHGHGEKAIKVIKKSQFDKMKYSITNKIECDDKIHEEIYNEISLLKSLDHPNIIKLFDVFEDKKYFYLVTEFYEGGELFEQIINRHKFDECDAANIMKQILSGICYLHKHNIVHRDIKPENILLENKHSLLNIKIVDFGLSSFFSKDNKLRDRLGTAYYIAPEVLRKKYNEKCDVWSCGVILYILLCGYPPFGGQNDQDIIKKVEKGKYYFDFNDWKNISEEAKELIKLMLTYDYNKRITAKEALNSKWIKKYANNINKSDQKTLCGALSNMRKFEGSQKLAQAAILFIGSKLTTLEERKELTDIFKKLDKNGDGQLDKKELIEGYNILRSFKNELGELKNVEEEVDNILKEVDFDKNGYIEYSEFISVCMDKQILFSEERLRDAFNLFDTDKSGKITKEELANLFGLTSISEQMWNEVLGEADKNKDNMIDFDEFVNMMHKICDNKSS
# Sequence of UniProt P23975 (whole entry, looked up): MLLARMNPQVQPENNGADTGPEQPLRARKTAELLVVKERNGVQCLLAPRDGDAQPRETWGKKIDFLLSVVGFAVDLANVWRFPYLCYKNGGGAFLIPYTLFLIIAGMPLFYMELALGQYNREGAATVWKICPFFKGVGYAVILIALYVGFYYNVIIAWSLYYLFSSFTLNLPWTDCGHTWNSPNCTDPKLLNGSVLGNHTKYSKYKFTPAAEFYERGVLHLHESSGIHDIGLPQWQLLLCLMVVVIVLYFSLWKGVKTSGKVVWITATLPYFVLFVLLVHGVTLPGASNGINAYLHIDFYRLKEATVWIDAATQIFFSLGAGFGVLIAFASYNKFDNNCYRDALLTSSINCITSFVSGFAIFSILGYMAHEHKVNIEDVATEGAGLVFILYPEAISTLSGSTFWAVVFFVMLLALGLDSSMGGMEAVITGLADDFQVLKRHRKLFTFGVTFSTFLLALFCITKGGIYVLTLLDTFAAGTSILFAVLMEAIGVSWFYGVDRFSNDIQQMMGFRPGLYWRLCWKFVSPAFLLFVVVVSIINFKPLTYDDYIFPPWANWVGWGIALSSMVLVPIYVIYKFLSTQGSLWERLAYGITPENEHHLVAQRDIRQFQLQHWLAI

# Sample 1
# Cell line: HEK-293T-ACE2-TMPRSS2
# Technique: cell count
# Tested at: concentration not given
Structure (SMILES),viability [%]
Cc1oc(-c2cccs2)nc1CN(C)C1CCCc2ccccc21 (stereo not shown),104
CC1CCN(CCCNC(=O)c2ccc(-c3cc(N4CCCC4)ncn3)cc2)CC1,112
COc1ccc(CCNC(=O)c2ccc(CN3CCc4ccccc4C3)cc2)cc1OC,67
CCN(CC)S(=O)(=O)N1CCC(C(=O)Nc2cccc(CCc3nc4cc(C)ccc4[nH]3)c2)CC1,66
CCOC(=O)CNC(=O)Nc1ccc2c(c1)CCN2S(=O)(=O)c1ccccc1,77
O=S1(=O)C=C(Br)c2ccccc21,68
CS(=O)(=O)c1ncc(Cl)c(C(=O)Nc2ccccc2Cc2ccccc2)n1,71
CN(CCCNC(=O)c1ccc(Nc2cc(-c3ccc(F)cc3)ncn2)cc1)c1ccccc1,73
CC(C)c1ccc(CN2CCCC3(CCN(C(=O)c4ccc5[nH]cnc5c4)C3)C2)cc1 (stereo not shown),72
COc1ccc(CCNc2ncnc3c2oc2ccccc23)cc1OC,66
O=C(NCCN1CCCCC1)C1CCc2ncc(-c3ccc(F)cc3)n2C1 (stereo not shown),82
Cc1nn(-c2ccc(-c3noc(C4CC4)n3)cc2)cc1C(=O)Nc1ccc2c(c1)OCCO2,75
O=C1CCCN1c1ccc(Cn2nc3c(S(=O)(=O)N4CCCC4)cccn3c2=O)cc1,113
C=CC(=O)N1CN(C(=O)C=C)CN(C(=O)C=C)C1,77
Cc1oc2ncnc(N3CCCC(C(=O)N4CCC5(CC4)OCCO5)C3)c2c1C (stereo not shown),70
CCOC(=O)c1oc2ccc(S(=O)(=O)N(C)CCc3c(C)nn(CC)c3C)cc2c1C,70
O=C(c1cscn1)N1CCc2c([nH]c3ccccc23)C1c1ccccc1F (stereo not shown),105
CC(=O)N[C@@H]1CN(C(=O)CCc2c[nH]c3ccccc23)C[C@H]1CO,109
Cc1cc(C(=O)Cn2ncc(Cl)c(Cl)c2=O)c(C)n1C1CC1,94
CC(C)(C)OC(=O)N1CCN(c2ncnc3sccc23)CC1,198

# Sample 2
# Cell line: HEK-293T/ACE2
# Technique: Hoechst nuclei count
# Tested at: concentration not given
# Time: 16 (unit not given)
# Baseline: vehicle
SMILES,viability
NC(=O)OCC(COC(N)=O)c1ccccc1,104%
CO[C@H]1C(=O)[C@]2(C)[C@@H](OC)C[C@H]3OC[C@@]3(OC(C)=O)[C@H]2[C@H](OC(=O)c2ccccc2)[C@]2(O)C[C@H](OC(=O)[C@H](O)[C@@H](NC(=O)OC(C)(C)C)c3ccccc3)C(C)=C1C2(C)C,60.9%
Cc1ccc(C(=O)c2ccc(CC(=O)O)n2C)cc1,101%
CC(C)c1nc(N(C)S(C)(=O)=O)nc(-c2ccc(F)cc2)c1/C=C/[C@@H](O)C[C@@H](O)CC(=O)O,95.2%
CCCCCCC(=O)O[C@H]1CC[C@H]2[C@@H]3CCC4=CC(=O)CC[C@]4(C)[C@H]3CC[C@]12C,101%
CC(=O)O[C@H]1CC[C@@]2(C)C(=CC[C@@H]3[C@@H]2CC[C@]2(C)C(c4cccnc4)=CC[C@@H]32)C1,96.1%
CC(=O)N[C@H]1[C@H]([C@H](O)[C@H](O)CO)OC(C(=O)O)=C[C@@H]1N=C(N)N,106%
CCOC(=O)c1ncn2c1CN(C)C(=O)c1cc(F)ccc1-2,98.2%
CNC(=O)c1cc(Oc2ccc(NC(=O)Nc3ccc(Cl)c(C(F)(F)F)c3)cc2)ccn1,89.5% and 90%
O=c1ccc2ccc(OCCCCN3CCN(c4cccc5sccc45)CC3)cc2[nH]1,99.9%
C=C(c1ccc(C(=O)O)cc1)c1cc2c(cc1C)C(C)(C)CCC2(C)C,102%
CN(C)CCCC1(c2ccc(F)cc2)OCc2cc(C#N)ccc21 (stereo not shown),102%
C[C@]12COC(=O)C[C@@H]1CC[C@@H]1[C@@H]2CC[C@@]2(C)[C@H]1CC[C@]2(C)O,105%

# Sample 3
# Host: human
# Medium: microsomes or S9
# Tested at: 2 µM
# Time: 0.5 h
Structure (SMILES),remaining compound
COc1cc(Cn2c(=O)[nH]c(O)c(C(C)=O)c2=O)cc(OC)c1,5.28%
Cc1c(C)n(CCN2CCOCC2)c2nc3c(c(N)c12)CCCC3,67.2%
CCOc1cc2c(cc1OCC)-n1cccc1C(c1ccccc1OC)NC2 (stereo not shown),78.5%

# Other studies, line by line
SMILES,target,effect on,technique,tested at,quantity,result
NS(=O)(=O)c1cc(NC(=O)C2(c3ccccc3Cl)CC2)ccc1Oc1cccc(Cl)c1,"Calcium-dependent protein kinase 1 (CDPK1, Plasmodium falciparum, UniProt P62344)",cell-free assay,competition with immobilised ligand,1 µM,remaining binding,89%
CC(=O)N1CCC(c2ccc(C(=O)NC3=NCCN3)cc2C(F)(F)F)CC1,"Sodium-dependent noradrenaline transporter (SLC6A2, Homo sapiens, UniProt P23975)",ligand displacement,,10 µM,inhibition,21.5%
CCCCN(CCCC)C(=O)CN1C[C@@H](c2cc(OC)c3c(c2)OCO3)[C@H](C(=O)O)[C@H]1CC(C)(C)CCC,"Serine/threonine-protein kinase TNNI3K (TNNI3K, Homo sapiens, UniProt Q59H18)",cell-free assay,competition with immobilised ligand,1 µM,remaining binding,95.9%
CNCc1ccccc1-c1csc([C@@H](C)Nc2nc(C)nc3cc(OC)c(OC)cc23)c1,"D(1B) dopamine receptor (DRD5, Homo sapiens, UniProt P21918)",cell-free assay,,10 µM,inhibition,32.5%

# For quick reference, copied from above (sample 1):
Structure (SMILES),viability [%]
CCN(CC)S(=O)(=O)N1CCC(C(=O)Nc2cccc(CCc3nc4cc(C)ccc4[nH]3)c2)CC1,66
CCOC(=O)CNC(=O)Nc1ccc2c(c1)CCN2S(=O)(=O)c1ccccc1,77
O=S1(=O)C=C(Br)c2ccccc21,68
CS(=O)(=O)c1ncc(Cl)c(C(=O)Nc2ccccc2Cc2ccccc2)n1,71
CN(CCCNC(=O)c1ccc(Nc2cc(-c3ccc(F)cc3)ncn2)cc1)c1ccccc1,73
CC(C)c1ccc(CN2CCCC3(CCN(C(=O)c4ccc5[nH]cnc5c4)C3)C2)cc1 (stereo not shown),72
COc1ccc(CCNc2ncnc3c2oc2ccccc23)cc1OC,66
